Assay results from different studies.
Each line is one published result; not all experiments were run side by side. Values joined by “and” are separate records of one study, mostly repeats; a detail may differ. ± gives the spread as reported.
FFAR4: Free fatty acid receptor 4 (FFAR4, Homo sapiens, UniProt Q5NUL3)
NADH dehydrogenase [ubiquinone] iron-sulfur protein 7, mitochondrial/NADH dehydrogenase [ubiquinone] iron-sulfur protein 2, mitochondrial/MT-ND1: NADH dehydrogenase [ubiquinone] iron-sulfur protein 7, mitochondrial/NADH dehydrogenase [ubiquinone] iron-sulfur protein 2, mitochondrial/MT-ND1 (Homo sapiens, UniProt O75251+O75306+P03886)
TRPM8: Transient receptor potential cation channel subfamily M member 8 (TRPM8, Homo sapiens, UniProt Q7Z2W7)
T1: riboswitch RNA yjdF aptamer (Bacillus subtilis); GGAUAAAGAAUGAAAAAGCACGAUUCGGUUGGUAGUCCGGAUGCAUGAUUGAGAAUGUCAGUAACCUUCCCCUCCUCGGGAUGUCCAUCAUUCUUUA

SMILES | target | assay | test system | conditions | scale | quantity | value
O=c1cc(N2CCC(c3ccccc3)CC2)[nH]c(=O)[nH]1 | FFAR4 | antagonist, β-arrestin recruitment | CHO cells | 10 µM, with: 4 µM TUG-891 |  | inhibition | -12 ± 6%
Nc1ncnc2c1ncn2[C@@H]1O[C@H](COP(=O)(O)OP(=O)(O)OP(=O)(O)O)[C@@H](O)[C@H]1O | P2X purinoceptor 7 (P2rx7, Rattus norvegicus, UniProt Q64663) | ion current, agonist, two-electrode voltage clamp | Xenopus laevis oocytes | 1000 µM | baseline: highest concentration response | normalized current | 0.96 and 1 and 0.98
CC[C@@H](C)[C@@H](NC(=O)[C@@H](Cc1ccc(O)cc1)NC(=O)[C@H]1CCCN1C(=O)[C@@H](CCCNC(=N)N)NC(=O)[C@H](N)Cc1c[nH]cn1)C(=O)N[C@H](C)C(=O)N[C@H](Cc1c[nH]cn1)C(=O)N[C@H](CCCNC(=N)N)C(=O)N[C@@H](C(=O)N[C@H](Cc1ccc(O)cc1)C(=O)N[C@H](CO)C(=O)N[C@H](Cc1ccccc1)C(N)=O)C(C)C | Transferrin receptor protein 1 (Tfrc, Mus musculus, UniProt Q62351) | flow cytometry | RAW264.7 | 48 h, pH 7.4, unit not given | baseline: 0 h | surface expression | 0.939 and 0.972
CC(C)(C)c1cc(C(=O)Nc2cccnc2)cc(C(=O)Nc2cccnc2)c1 | Glideosome-associated protein 50 (GAP50, Plasmodium falciparum, UniProt Q8I2X3) | binding, surface plasmon resonance |  | 1:1 binding model |  | kon | 17200 M⁻¹ s⁻¹
C=CC(=O)N1CCC(COCC(=O)N2CCN(c3nc(-c4cnc(N)nc4C(F)F)nc(N4CCOC[C@@H]4C)n3)CC2)CC1 | MYLK4 (Homo sapiens, UniProt Q86YV6) | KINOMEscan |  | 1 µM |  | remaining binding | 100%
Cc1[nH]c(N)nc1CCC(=O)c1ccccc1.Cl | HVCN1 (Homo sapiens, UniProt Q96D96) | proton current, inhibitor, inside-out patch clamp | Xenopus oocytes | dimeric channel |  | Hill coefficient | 1.28 ± 0.04
Cn1ncc2c(N3CCCCC3)nc(Nc3ccccc3)nc21 | 3-oxoacyl-[acyl-carrier-protein] reductase FabG (fabG, Pseudomonas aeruginosa, UniProt O54438) | enzyme activity, inhibitor, NADPH fluorescence |  | reverse reaction, with: 3-OH-decanoyl-NAC, NADP |  | Hill slope | 1.5
NC(=O)NO | NADH dehydrogenase [ubiquinone] iron-sulfur protein 7, mitochondrial/NADH dehydrogenase [ubiquinone] iron-sulfur protein 2, mitochondrial/MT-ND1 | complex I-dependent respiration, Seahorse XF96 | HCT-116 | 200 µM, 24 h | baseline: control | oxygen consumption rate | 86.5 ± 2.07%
[O-][S+]1CCCCS1 (centres unmarked) | SOD1 (Homo sapiens, UniProt P00441, G94A) | intact protein LC-MS | SOD1 G93A transgenic mice, whole blood | oral, 150 mg/kg, 48 h, mean of two mice |  | target engagement | 25.9 % cross-linked dimer
OCC1CN(Cc2ccccc2)CC12CCN(CC1CCCCC1)CC2 (centres unmarked) | Prelamin-A/C, isoform C (Homo sapiens, UniProt P02545) | CETSA | A549 | 100 µM, 24 h |  | delta Tm | 0.8 °C
NCc1ccc(C(F)(F)F)cc1 | Maoa (Rattus norvegicus, UniProt P21396) | kcat/Km ascending limb free E S, substrate |  | pH 6.5-9.5 |  | pKa1 | 7.8 ± 0.1
CC(C)(C)c1ccc(CCNc2cc(=O)[nH]c(=O)[nH]2)cc1 | FFAR4 | antagonist, β-arrestin recruitment | CHO cells | 10 µM |  | inhibition | -8 ± 12%
CC(=O)c1ccc(N2CCOCC2)cc1O | TRPM8 | antagonist | HEK293 | 5 µM | baseline: control | remaining activity | 91.7 ± 10%
CCN(CCO)CCCC(C)Nc1ccnc2cc(Cl)ccc12 (centres unmarked) | SCN5A (Homo sapiens, UniProt Q14524) | sodium current, whole-cell patch clamp |  | 30 µM, without ATX-II |  | activation slope factor | 2.85 mV/e-fold and 4.5 mV/e-fold and 1.66 mV/e-fold
O=c1cc(NCCc2c[nH]c3ccccc23)[nH]c(=O)[nH]1 | FFAR4 | agonist, β-arrestin recruitment | CHO cells | 10 µM | baseline: 30 µM TUG-891 | agonist effect | 1%
NC(=O)NOCCCCCCCCCCCCCCCC[P+](c1ccccc1)(c1ccccc1)c1ccccc1.O=C([O-])C(F)(F)F | NADH dehydrogenase [ubiquinone] iron-sulfur protein 7, mitochondrial/NADH dehydrogenase [ubiquinone] iron-sulfur protein 2, mitochondrial/MT-ND1 | complex I-dependent respiration, Seahorse XF96 | HCT-116 | 0.3 µM, 24 h | baseline: control | oxygen consumption rate | 81.1 ± 8.84%

SMILES | target | assay | test system | conditions | scale | quantity | value
CCCCCCCCC(=O)c1cc(O)c(O)c(O)c1 | Nuclear receptor subfamily 4 group A member 2, LBD (Homo sapiens, UniProt P43354) | reporter gene, Gal4 hybrid reporter |  | 10 µM | baseline: vehicle | activation | 2.4 fold
O=[N+]([O-])c1cc(C(F)(F)F)ccc1NCc1ccco1 | Endothelial PAS domain-containing protein 1, PAS-B domain (EPAS1, Homo sapiens, UniProt Q99814) | binding, ITC, reverse mode |  |  |  | ΔG | -8.04 ± 0.21 kcal/mol
CCCCc1c(-c2ccc(O)cc2)[nH]c2nccnc12 | TRPM8 | antagonist | HEK293 | 5 µM | baseline: control | remaining activity | 96.1 ± 13.2%
Cc1cc2nc3[nH]c(=O)[nH]c(=O)c3nc2cc1C | T1, riboswitch RNA yjdF aptamer (Bacillus subtilis) | fluorescence titration |  | with: 380 nM lumichrome |  | Kd | 0.36 µM
COc1cc(O)c(CC=C(C)C)c(O)c1C(=O)/C=C/c1ccc(O)cc1 | Thyroxine 5-deiodinase (DIO3, Homo sapiens, UniProt P55073, A240R) | inhibitor |  | A240R variant |  | Hill slope | -1.03 and -1.04 and -0.91
O=S(=O)(O)C1CCNCC1 | SLC6A6 (Homo sapiens, UniProt P31641, G62A) | binding, microscale thermophoresis |  | 1.95 µM, room temperature, with: 50 nM labelled protein | higher = more binding | normalised MST signal | 0.00334
O=c1nc(SCc2cc(F)cc(C(F)(F)F)c2)nc(SCc2ccc3nc(Cl)ccc3c2)[nH]1 | TOP2A (Homo sapiens, UniProt P11388) | ATPase activity |  | 7.8 µM, with: ATP 1 mM |  | ATP hydrolysis rate | 0.353 µM/min and 2.92 µM/min
CC[C@@H]1[C@H](F)C(=O)N[C@@H]1COc1nccc2cc(C(N)=O)c(OC)cc12 | TNIK (Homo sapiens, UniProt Q9UKE5) | ATP probe binding, KiNativ profiling, refers to: Lys1 probe site | THP-1 cell lysate | 0.04 mM |  | inhibition | -2.7%
O=C1NC(=O)/C(=C/c2ccc(OCCNc3nc4c(cnn4C4CCCC4)c(=O)[nH]3)c(F)c2)S1 | PDE8A (Homo sapiens, UniProt O60658) |  |  |  | baseline: PDE8A over PDE9 | selectivity ratio | 181 fold
CC(=O)Nc1ccc(O)cc1 | BRD4 (Homo sapiens, UniProt O60885) | 19F NMR, refers to: tyrosine 97 |  | 1470 µM | baseline: free protein | chemical shift change | -0.181 ppm
Nc1nc2c(ncn2[C@@H]2O[C@H](COP(=O)(O)O)[C@@H](O)[C@H]2O)c(=O)[nH]1 | GUK1 (Homo sapiens, UniProt Q16774, R44A) | binding, ITC |  |  |  | ΔG | -4.87 kcal/mol
CCCCC(CC)CNc1cc(=O)[nH]c(=O)[nH]1 (racemic) | FFAR4 | β-arrestin recruitment | CHO | 10 µM | baseline: 30 µM TUG-891 | agonist effect | -1%
CC[C@H](C)[C@@H]1NC(=O)[C@H](C)NC(=O)[C@H]([C@@H](C)CC)NC(=O)[C@H](CCC(N)=O)NC(=O)[C@H](C)NC(=O)[C@H](CCCNC(=N)N)NC(=O)[C@H](C(C)C)NC(=O)[C@H](CC(C)C)NC(=O)[C@H](CCC(=O)O)NC(=O)[C@H](CCCNC(=N)N)NC(=O)CNC(=O)[C@@H](NC(=O)[C@H](CC(C)C)NC(=O)[C@H](CCCCN)NC(=O)[C@@H](NC(=O)[C@@H](NC(=O)[C@H](CCC(=O)O)NC(=O)[C@H](CCC(=O)O)NC(=O)[C@H](CCSC)NC(=O)[C@H](Cc2c[nH]c3ccccc23)NC(=O)[C@H](CO)NC(=O)[C@@H](N)CC(=O)O)C(C)C)[C@@H](C)CC)CSSC[C@@H]2NC(=O)[C@@H](NC(=O)[C@H](CCCCN)NC(=O)[C@H](CC(N)=O)NC(=O)[C@H](C)NC(=O)[C@H](CC(C)C)NC(=O)[C@H](C)NC(=O)[C@H](CO)NC(=O)[C@H](Cc3ccc(O)cc3)NC(=O)[C@H](CC(C)C)NC(=O)[C@H](CCC(N)=O)NC(=O)c3ccc(-c4c5ccc(=[N+](C)C)cc-5oc5cc(N(C)C)ccc45)c(C(=O)[O-])c3)CSSC[C@H](NC(=O)CNC(=O)[C@H](C(C)C)NC(=O)[C@H](Cc3c[nH]cn3)NC2=O)C(=O)N[C@@H]([C@@H](C)O)C(=O)N[C@@H](CCCCN)C(=O)N[C@@H](CCCNC(=N)N)C(=O)N[C@@H](CO)C(=O)N[C@@H](CC(C)C)C(=O)N[C@@H](C)C(=O)N[C@@H](CCCNC(=N)N)C(=O)N[C@@H](Cc2ccccc2)C(=O)N[C@H](C(=O)O)CSSC[C@@H](C(=O)NCC(=O)N[C@@H](CCSC)C(=O)N[C@@H](CO)C(=O)N[C@H](C(=O)N[C@@H](Cc2c[nH]c3ccccc23)C(=O)N[C@@H](CO)C(=O)O)[C@@H](C)O)NC1=O | Relaxin receptor 1 (RXFP1, Homo sapiens, UniProt Q9HBX9, F76A/Y80A) | NanoBRET |  | concentration not given, with: relaxin 10 µM |  | fast dissociation fraction | 56%
COc1cccc(-n2nc3c4cc(Cl)ccc4[nH]cc-3c2=O)c1 | Gamma-aminobutyric acid receptor subunit alpha-4/beta-3, with delta subunit (Rattus norvegicus, UniProt P28471+P63079) | modulator, two-electrode voltage clamp | α4β3δ receptor | 1 nM, with: GABA EC3-10 | baseline: GABA alone | GABA current | 100%
O=c1cc(NCCc2cccs2)[nH]c(=O)[nH]1 | FFAR4 | agonist, β-arrestin recruitment | CHO cells | 10 µM |  | activation | 0%
O=C(COc1ccc(Cl)cc1Cl)Nc1nn(-c2ccccc2)c2ncccc12 | Kir3.1/Kir3.2 (Homo sapiens, UniProt P48051+P48549) | thallium flux, activator | HEK293 |  | baseline: standard compound | Emax | 22%
